Assay results pooled from the literature.
“And” joins repeats or separate records; there may be more than shown. Numbers after ± are the reported error.
MAPK8: Mitogen-activated protein kinase 8 (MAPK8, Homo sapiens, UniProt P45983)
UniProt P46089, sequence (whole entry, unmodified, looked up): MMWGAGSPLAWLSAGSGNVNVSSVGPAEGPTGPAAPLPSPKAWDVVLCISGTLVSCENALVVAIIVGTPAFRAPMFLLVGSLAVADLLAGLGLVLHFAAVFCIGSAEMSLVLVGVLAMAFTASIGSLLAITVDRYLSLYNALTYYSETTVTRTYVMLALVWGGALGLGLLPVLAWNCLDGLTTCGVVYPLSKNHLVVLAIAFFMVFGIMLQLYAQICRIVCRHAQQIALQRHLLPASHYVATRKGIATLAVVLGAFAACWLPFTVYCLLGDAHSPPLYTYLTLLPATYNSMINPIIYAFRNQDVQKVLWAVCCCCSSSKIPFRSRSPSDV
UniProt P45983, sequence (whole entry, looked up): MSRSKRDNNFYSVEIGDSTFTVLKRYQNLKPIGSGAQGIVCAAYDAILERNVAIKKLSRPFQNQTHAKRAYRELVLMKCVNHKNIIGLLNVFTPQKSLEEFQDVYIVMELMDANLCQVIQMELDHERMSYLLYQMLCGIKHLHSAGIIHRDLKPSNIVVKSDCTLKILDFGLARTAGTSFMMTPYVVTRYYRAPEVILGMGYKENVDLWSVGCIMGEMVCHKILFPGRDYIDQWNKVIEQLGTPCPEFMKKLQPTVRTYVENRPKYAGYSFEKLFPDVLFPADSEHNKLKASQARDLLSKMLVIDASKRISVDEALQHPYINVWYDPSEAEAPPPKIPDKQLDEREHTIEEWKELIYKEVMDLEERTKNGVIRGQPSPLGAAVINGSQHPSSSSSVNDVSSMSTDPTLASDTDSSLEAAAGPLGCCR
UniProt Q86WV6, sequence (whole entry, unmodified, looked up): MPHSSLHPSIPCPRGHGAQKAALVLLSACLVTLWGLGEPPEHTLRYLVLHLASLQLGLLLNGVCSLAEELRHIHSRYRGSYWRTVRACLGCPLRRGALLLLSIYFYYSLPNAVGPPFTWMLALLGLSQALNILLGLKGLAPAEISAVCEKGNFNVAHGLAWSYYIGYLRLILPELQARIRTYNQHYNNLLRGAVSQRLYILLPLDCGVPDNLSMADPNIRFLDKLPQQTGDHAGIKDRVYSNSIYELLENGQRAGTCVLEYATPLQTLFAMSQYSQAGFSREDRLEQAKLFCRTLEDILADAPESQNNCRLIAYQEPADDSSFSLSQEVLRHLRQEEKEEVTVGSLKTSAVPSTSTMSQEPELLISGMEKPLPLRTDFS
UniProt O75385, sequence (whole entry, looked up): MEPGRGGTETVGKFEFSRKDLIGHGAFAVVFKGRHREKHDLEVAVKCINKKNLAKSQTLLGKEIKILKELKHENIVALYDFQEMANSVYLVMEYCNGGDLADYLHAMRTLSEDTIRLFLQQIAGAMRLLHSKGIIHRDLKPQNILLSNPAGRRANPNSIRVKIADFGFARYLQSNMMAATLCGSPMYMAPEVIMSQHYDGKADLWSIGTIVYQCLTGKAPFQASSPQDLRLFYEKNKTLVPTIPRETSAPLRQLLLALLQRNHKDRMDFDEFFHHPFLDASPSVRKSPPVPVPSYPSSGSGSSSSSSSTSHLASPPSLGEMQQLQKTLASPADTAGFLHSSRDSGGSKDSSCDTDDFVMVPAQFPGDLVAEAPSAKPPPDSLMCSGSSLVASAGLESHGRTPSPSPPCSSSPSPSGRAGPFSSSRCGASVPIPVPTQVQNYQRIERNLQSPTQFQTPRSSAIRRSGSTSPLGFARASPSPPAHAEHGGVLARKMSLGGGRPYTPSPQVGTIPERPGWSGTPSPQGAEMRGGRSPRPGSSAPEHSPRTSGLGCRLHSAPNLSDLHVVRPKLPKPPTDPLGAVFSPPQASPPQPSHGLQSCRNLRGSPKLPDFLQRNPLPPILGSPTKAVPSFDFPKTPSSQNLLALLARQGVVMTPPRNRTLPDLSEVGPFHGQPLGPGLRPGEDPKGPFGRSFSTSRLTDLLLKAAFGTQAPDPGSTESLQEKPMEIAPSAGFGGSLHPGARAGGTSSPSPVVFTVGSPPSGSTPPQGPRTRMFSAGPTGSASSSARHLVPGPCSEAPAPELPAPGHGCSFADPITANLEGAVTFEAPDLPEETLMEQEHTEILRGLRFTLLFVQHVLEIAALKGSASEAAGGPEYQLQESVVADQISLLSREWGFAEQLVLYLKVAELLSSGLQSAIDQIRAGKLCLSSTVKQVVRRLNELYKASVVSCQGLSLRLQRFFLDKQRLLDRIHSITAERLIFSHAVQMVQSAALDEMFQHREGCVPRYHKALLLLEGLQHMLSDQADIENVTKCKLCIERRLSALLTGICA
UniProt Q9SZU7, sequence (whole entry, unmodified, looked up): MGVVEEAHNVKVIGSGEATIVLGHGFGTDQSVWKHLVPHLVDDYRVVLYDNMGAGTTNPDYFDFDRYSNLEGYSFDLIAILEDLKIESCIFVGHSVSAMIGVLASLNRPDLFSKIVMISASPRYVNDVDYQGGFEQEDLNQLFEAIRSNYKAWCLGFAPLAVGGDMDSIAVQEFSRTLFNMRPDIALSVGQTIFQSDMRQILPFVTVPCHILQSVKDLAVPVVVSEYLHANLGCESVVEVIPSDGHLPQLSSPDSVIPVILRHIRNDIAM
UniProt P08546, sequence (whole entry, looked up): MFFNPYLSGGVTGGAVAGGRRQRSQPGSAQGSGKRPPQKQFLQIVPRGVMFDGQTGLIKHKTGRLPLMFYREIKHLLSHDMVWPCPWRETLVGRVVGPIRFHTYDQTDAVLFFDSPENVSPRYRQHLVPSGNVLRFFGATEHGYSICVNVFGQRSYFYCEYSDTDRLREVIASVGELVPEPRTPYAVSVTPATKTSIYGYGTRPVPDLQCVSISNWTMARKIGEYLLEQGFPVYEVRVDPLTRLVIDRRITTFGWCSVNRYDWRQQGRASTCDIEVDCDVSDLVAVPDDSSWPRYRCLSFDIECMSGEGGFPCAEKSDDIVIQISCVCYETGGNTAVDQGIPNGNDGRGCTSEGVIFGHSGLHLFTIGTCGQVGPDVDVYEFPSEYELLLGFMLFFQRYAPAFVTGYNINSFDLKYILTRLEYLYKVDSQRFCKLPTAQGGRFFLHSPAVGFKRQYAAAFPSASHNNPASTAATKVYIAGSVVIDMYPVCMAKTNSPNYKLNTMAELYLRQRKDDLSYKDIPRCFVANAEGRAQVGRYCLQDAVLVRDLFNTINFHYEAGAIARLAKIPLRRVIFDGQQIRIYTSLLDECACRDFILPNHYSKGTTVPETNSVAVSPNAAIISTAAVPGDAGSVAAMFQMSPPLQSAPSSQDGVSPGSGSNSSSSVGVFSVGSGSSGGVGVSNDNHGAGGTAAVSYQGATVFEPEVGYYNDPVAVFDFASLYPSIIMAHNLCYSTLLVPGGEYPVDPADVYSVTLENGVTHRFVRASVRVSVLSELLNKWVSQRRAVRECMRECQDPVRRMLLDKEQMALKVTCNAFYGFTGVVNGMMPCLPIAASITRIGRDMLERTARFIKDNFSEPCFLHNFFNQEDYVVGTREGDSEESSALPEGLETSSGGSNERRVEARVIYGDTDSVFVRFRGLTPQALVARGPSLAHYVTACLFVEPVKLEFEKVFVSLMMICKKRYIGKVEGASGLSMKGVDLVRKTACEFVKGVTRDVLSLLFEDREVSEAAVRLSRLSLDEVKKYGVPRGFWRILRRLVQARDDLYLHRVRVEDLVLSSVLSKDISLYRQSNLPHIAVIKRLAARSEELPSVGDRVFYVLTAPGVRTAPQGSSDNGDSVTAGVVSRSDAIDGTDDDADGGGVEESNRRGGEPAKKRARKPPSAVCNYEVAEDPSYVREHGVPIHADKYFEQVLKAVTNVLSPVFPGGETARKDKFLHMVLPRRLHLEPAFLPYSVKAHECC
UniProt Q9HB29, sequence (whole entry, looked up): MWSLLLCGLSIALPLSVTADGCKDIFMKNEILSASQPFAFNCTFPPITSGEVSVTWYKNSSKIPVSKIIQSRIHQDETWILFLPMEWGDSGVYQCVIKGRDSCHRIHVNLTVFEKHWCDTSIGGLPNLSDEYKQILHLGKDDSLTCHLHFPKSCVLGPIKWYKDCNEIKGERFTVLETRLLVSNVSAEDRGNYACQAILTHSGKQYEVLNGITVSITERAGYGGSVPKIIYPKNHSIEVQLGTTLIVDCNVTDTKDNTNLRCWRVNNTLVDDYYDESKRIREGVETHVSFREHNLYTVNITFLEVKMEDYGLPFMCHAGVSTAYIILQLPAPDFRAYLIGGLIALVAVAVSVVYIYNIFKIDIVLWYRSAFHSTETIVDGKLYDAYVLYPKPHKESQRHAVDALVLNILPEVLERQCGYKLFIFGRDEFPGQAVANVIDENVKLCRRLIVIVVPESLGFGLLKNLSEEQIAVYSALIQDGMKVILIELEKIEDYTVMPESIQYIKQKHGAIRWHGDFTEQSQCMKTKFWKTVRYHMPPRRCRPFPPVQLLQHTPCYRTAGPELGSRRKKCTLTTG
UniProt Q15910, sequence (whole entry, looked up): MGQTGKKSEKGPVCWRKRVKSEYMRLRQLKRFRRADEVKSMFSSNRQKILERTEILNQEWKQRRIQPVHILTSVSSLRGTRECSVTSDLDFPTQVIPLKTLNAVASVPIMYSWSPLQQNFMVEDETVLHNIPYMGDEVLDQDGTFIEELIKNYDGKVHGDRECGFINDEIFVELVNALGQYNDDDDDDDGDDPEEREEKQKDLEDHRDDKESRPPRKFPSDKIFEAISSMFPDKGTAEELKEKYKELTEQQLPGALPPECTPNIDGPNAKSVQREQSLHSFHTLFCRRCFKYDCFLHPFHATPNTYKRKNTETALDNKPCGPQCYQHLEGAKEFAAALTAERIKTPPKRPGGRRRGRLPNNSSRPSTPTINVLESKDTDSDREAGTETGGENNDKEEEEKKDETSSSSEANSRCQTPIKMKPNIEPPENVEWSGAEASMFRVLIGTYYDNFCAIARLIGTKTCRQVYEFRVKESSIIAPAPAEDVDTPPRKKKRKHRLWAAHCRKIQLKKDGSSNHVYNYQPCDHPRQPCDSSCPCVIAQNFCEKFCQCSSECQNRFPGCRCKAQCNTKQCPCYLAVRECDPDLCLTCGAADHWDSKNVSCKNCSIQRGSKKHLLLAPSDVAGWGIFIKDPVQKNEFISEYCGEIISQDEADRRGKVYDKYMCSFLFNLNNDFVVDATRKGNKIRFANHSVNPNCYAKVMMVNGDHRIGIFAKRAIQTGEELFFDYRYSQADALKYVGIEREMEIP

| SMILES | tested on | test | test system | setting | how to read | endpoint | result |
| --- | --- | --- | --- | --- | --- | --- | --- |
| C=CC(=O)Nc1cccc(Cn2ncc3cnc(Nc4cnn(CCOC)c4)nc32)c1 | human ABL1(T315I)-phosphorylated | KINOMEscan | – | 100 nM | relative to: control | binding | 14% |
| CC1(F)CN(C(=O)Cn2c(=O)c(C(=O)NCc3ccc(Cl)cc3)cc3nc(N4CCN(CCN)C4=O)cnc32)C1 | DNA polymerase catalytic subunit (Human cytomegalovirus, UniProt P08546) | enzyme activity, inhibitor | – | – | – | Hill slope | 0.74 |
| COc1cc(C2C(NC(=O)c3ccc(NC(=O)OC(C)(C)C)cc3)(C(=O)O)C(c3ccc(OC(=O)c4cccs4)c(OC)c3)C2(NC(=O)c2ccc(NC(=O)OC(C)(C)C)cc2)C(=O)O)ccc1OC(=O)c1cccs1 (stereo not shown) | GLP1R (Homo sapiens, UniProt P43220, Q140A) | cAMP accumulation, agonist | – | receptor mutant | relative to: wild type | Emax | 100 ± 3.42% |
| CCCCCC=CC=C1C(=O)C=CC1CC=CCCCC(=O)O (stereo not shown) | REEP5 (Homo sapiens, UniProt Q00765) | competitive isoTOP-ABPP | Ramos soluble proteome | 100 µM, 60 min, together with: iodoacetamide probe | relative to: DMSO over compound-treated, higher = stronger cysteine blockade | isoTOP-ABPP competition ratio | 6.3 |
| CN(C)c1ccc(C#CCOC(=O)[C@]2(C)C=C(C(=O)OC(C)(C)C)C(=O)CC2)cc1 | MAPK8 | D-peptide binding, inhibitor, FP peptide displacement | – | 125 µM | lower is stronger displacement | fraction bound | 0.259 |
| COC(=O)c1cccc(-c2ccccc2O[C@@H]2O[C@H](CO)[C@H](O)[C@H](O)[C@H]2O)c1 | Adhesin FmlH, lectin domain (Escherichia coli, UniProt Q1RBS0) | binding to desialylated BSM, competition ELISA | UPEC UTI89 | 10 µM | – | inhibition (PI10) | 22.4 ± 2.6% |
| O=C([O-])CN1CCN(CC(=O)[O-])CCN(Cc2cccc(C(=O)[O-])n2)CC1.[177Lu+3] | – | – | mouse, heart | intravenous, 1 h | – | tracer uptake | 0.22 %ID/g |
| CC(C)Oc1cc(Cl)ccc1CNc1cc(-c2ccccc2)nc2ncnn12 | GPR3 (Homo sapiens, UniProt P46089, I200W) | cAMP GloSensor | human cells | 3 µM | higher is more cAMP | cAMP luminescence | 27200 a.u. and 33800 a.u. and 29800 a.u. and 23500 a.u. |
| O=C(O)[C@H]1O[C@@H](O[C@H]2[C@H](O)[C@H](O)[C@H](O[C@H]3[C@H](O)[C@H](O)[C@H](O)O[C@@H]3C(=O)O)O[C@H]2C(=O)O)[C@@H](O)[C@@H](O)[C@@H]1O[C@@H]1O[C@@H](C(=O)O)[C@@H](O)[C@H](O)[C@@H]1O | Beta-lactoglobulin (LGB, Bos taurus, UniProt P02754, A134V/G80D) | isothermal titration calorimetry | – | concentration not given, pH 4.00, 37 °C, 50 mM KH2PO4 | ligand per protein | binding stoichiometry | 4.1 |
| Cc1cccc2c1N(C(=O)n1ccnn1)CC2 | KAI2 (Arabidopsis thaliana, UniProt Q9SZU7, F26A) | ITC | – | F26A mutant | relative to: wild type | relative affinity | 14.3% |
| C=C1CC2(C(=O)OC)C=C(C(=O)OC(C)(C)C)C(=O)C1C2 (stereo not shown) | MAPK8 | D-peptide binding, inhibitor, FP peptide displacement | – | 3.906 µM | lower is stronger displacement | fraction bound | 0.912 |
| Cc1cc(C)c(CNC(=O)c2c(C)n(C(C)C3CCC(NC4(C)COC4)CC3)c3ccccc23)c(=O)[nH]1 (stereo not shown) | EZH2 (Homo sapiens, UniProt Q15910) | binding, TR-FRET | – | – | – | residence time | 114 min |
| Clc1ccc(C(Cn2cncn2)OCc2ccc(Br)cc2)c(Cl)c1 (stereo not shown) | ULK1 (Homo sapiens, UniProt O75385) | enzyme activity, inhibitor, ADP detection | – | 0.1 µM | – | activity vs control | 110% |
| O=C(N[C@@H](CCNC(=O)c1ccc([N+](=O)[O-])o1)c1nc2ccccc2[nH]1)c1cn(-c2ccccc2)cn1 | STING1 (Homo sapiens, UniProt Q86WV6, H232R) | reporter gene, inhibitor | THP1-Dual KI-hSTING-R232 | 24 h, 1 h preincubation, together with: diABZI 500 nM | – | EC50 | 19.1 µM |
| Cc1nn(-c2cccc(N)c2)c(=O)c2cnc(Nc3ccc(N4CCNCC4)cc3)nc12 | PIK3C2B (Homo sapiens, UniProt O00750) | kinase activity, inhibitor, SelectScreen kinase profiling | – | – | – | IC50 | > 10 µM |
| C=CC(=O)N1C[C@H](C)N(c2nc(OC[C@@]34CCCN3C[C@H](F)C4)nc3c(F)c(-c4ccc(F)c5sc(N)c(C#N)c45)c(C(F)(F)F)cc23)C[C@H]1C | GTPase KRas, GppNHp-bound (KRAS, Homo sapiens, UniProt P01116) | SPR | – | wild type | relative to: GppNHp-bound over GDP-bound | on-rate decrease | 20 fold |
| CC(C)[C@@H]1NC(=O)[C@H](Cc2ccccc2)NC(=O)CSC[C@@H](C(N)=O)NC(=O)[C@H](CCC(=O)O)NC(=O)[C@H](CO)NC(=O)[C@H](Cc2c[nH]c3cccc(Cl)c23)NC(=O)[C@H](C2CCCCC2)NC(=O)[C@H](C(C)C)NC(=O)[C@H](Cc2ccc(O)cc2)NC(=O)[C@H](CC(=O)O)NC(=O)[C@H](Cc2c[nH]c3ccccc23)NC(=O)[C@H](Cc2ccc(N)nc2)NC(=O)[C@H](Cc2c[nH]c3ccc(Cl)cc23)NC(=O)[C@H](CCC(=O)O)NC1=O | Interleukin-1 receptor-like 2 (IL1RL2, Homo sapiens, UniProt Q9HB29) | reporter gene (SEAP), inhibitor, HEK-Blue IL-36R reporter | HEK-Blue IL-36R cells | 0.41 µM, 6 h, together with: IL-36γ 0.03 ng/mL | – | remaining activity | 0.1% |
| Cc1ncsc1-c1ccc(C(C)NC(=O)C2CC(O)CN2C(=O)C(NC(=O)CCCCCCCCCCN2CCCC(Nc3ncc(Cl)c(Nc4ccccc4S(=O)(=O)C(C)C)n3)C2)C(C)(C)C)cc1 (stereo not shown) | 22Rv1 | RNA-seq, measured: S100PBP | – | concentration not given | relative to: DMSO | log2 fold change | -1.47 |
| COC1CN([C@H]2CC[C@H]([C@@]3(C)Oc4c(Cl)cc(C(=O)NCc5c(SC)cc(C)[nH]c5=O)c(C)c4O3)CC2)C1 | – | RNA-seq, measured: mouse COMMD3-BMI1 homolog | mouse, HT-1376 xenograft, whole blood | dose not given, PRC2 target gene | relative to: vehicle | log2 fold change | 0.986 |

A few entries again:
| SMILES | tested on | test | test system | setting | how to read | endpoint | result |
| --- | --- | --- | --- | --- | --- | --- | --- |
| C=CC(=O)Nc1cccc(Cn2ncc3cnc(Nc4cnn(CCOC)c4)nc32)c1 | human ABL1(T315I)-phosphorylated | KINOMEscan | – | 100 nM | relative to: control | binding | 14% |
| CC1(F)CN(C(=O)Cn2c(=O)c(C(=O)NCc3ccc(Cl)cc3)cc3nc(N4CCN(CCN)C4=O)cnc32)C1 | DNA polymerase catalytic subunit (Human cytomegalovirus, UniProt P08546) | enzyme activity, inhibitor | – | – | – | Hill slope | 0.74 |
| COc1cc(C2C(NC(=O)c3ccc(NC(=O)OC(C)(C)C)cc3)(C(=O)O)C(c3ccc(OC(=O)c4cccs4)c(OC)c3)C2(NC(=O)c2ccc(NC(=O)OC(C)(C)C)cc2)C(=O)O)ccc1OC(=O)c1cccs1 (stereo not shown) | GLP1R (Homo sapiens, UniProt P43220, Q140A) | cAMP accumulation, agonist | – | receptor mutant | relative to: wild type | Emax | 100 ± 3.42% |
